Measurements gathered from unrelated publications.

Compound | tested on | assay | system | setting | endpoint | value
FC(F)(F)c1ccc(CNc2ccc(Cc3c[nH]c4ncc(Cl)cc34)cn2)cn1 | – | measured: skin hypopigmentation | patients with TGCT | oral, 1000 mg/day, all grades | patients with treatment-related adverse event | 15%
O=C(Nc1nc2cccc(-c3ccc(CN4CCS(=O)(=O)CC4)cc3)n2n1)C1CC1 | – | measured: bile reflux into stomach | rheumatoid arthritis patients | oral, 75 mg once daily, 4 weeks, any relatedness | patients with adverse event | 4.5%
CNC(=O)c1cc(Oc2ccc(NC(=O)Nc3cc(C(C)(C)C)nn3-c3ccc4ncccc4c3)c(F)c2)ccn1 | – | – | patients | oral, dose not given, cycles 1 and 2, High AUC subgroup | patients with musculoskeletal disorders | 50%
CNC(=O)c1ccc(-c2cnc3ncc(Cc4ccc5ncccc5c4)n3n2)cc1F | – | measured: Headache, all grades | cancer patients | oral, 600 mg twice daily, expansion cohort, any causality | patients with adverse event | 11%
Cc1cc(NC2CCN(C(=O)OC3CCN(C(=O)/C=C/CN(C)C)C3)CC2)n2ncc(C(C)C)c2n1 (stereo not shown) | – | – | patients with advanced solid tumours | dose not given, QD arm, any grade | patients with Dyspnea | 16%
NC(=O)c1cccnc1 | OCI-Ly1 | – | – | 1 µM, 120 h | viability | 159%
C=CC(=O)NC1CCN(c2ncc3ncnc(Nc4ccc(Oc5ccc6c(c5)ncn6C)c(C)c4)c3n2)CC1 | – | – | male patients | oral, dose not given, on-treatment adverse events | patients with Alopecia | 0%
COc1cc(Nc2ncc3c(n2)-c2ccc(Cl)cc2C(c2c(F)cccc2OC)=NC3)ccc1C(=O)O | – | – | cancer patients | oral, dose not given, grade 1 any attribution, added: pembrolizumab | patients with increased creatinine | 17%
O=C(CCCCCCC(=O)Nc1ccc(I)cc1)NO | OCI-Ly1 | – | – | 1 µM, 120 h | viability | 8.12%
Cc1cc(-c2nnc(N)nc2-c2ccc(F)cc2)cc(Cl)n1 | – | measured: Arthritis | IO-naive mCRPC patients, male | oral, dose not given, treatment-related, grade ≥3 | patients with immune-mediated AE | 0%

Excerpt of the above:
Compound | tested on | assay | system | setting | endpoint | value
COc1cc(Nc2ncc3c(n2)-c2ccc(Cl)cc2C(c2c(F)cccc2OC)=NC3)ccc1C(=O)O | – | – | cancer patients | oral, dose not given, grade 1 any attribution, added: pembrolizumab | patients with increased creatinine | 17%
FC(F)(F)c1ccc(CNc2ccc(Cc3c[nH]c4ncc(Cl)cc34)cn2)cn1 | – | measured: skin hypopigmentation | patients with TGCT | oral, 1000 mg/day, all grades | patients with treatment-related adverse event | 15%
